{"data": "Measurements collected from several papers", "note": "± marks the error that the study gave."}
{"Structure (SMILES)": "N=C(N)NCCC[C@@H]1NC(=O)[C@H](CCCCNC(=S)Nc2ccc(CC3CN(CC(=O)O)CCN(CC(=O)O)CCN(CC(=O)O)CCN3CC(=O)O)cc2)NC(=O)[C@@H](Cc2ccc(O)cc2)NC(=O)[C@H](CC(=O)O)NC(=O)CNC1=O (stereo partly shown) [actinium-225 labelled]", "system": "U-87 MG tumour-bearing mice", "setting": "1 h", "quantity": "tumour to blood ratio", "value": 12}
{"Structure (SMILES)": "Cc1nc(C)c(C=[N+]([O-])C(C)(C)C)nc1C", "test": "Western blot, item: PGC-1α", "system": "primary midbrain neurons, rat", "setting": "30 µM, together with: 20 µM MPP+", "quantity": "protein level increase", "value": "28.1%"}
{"Structure (SMILES)": "COc1cc(CNC(=O)C[C@H](C)CCC=C(C)C)ccc1OCc1cn(-c2ccccc2[N+](=O)[O-])nn1", "target or system": "SW-620", "test": "SRB", "setting": "10 µM, 48 h", "quantity": "growth percent", "value": "92.9%"}
{"Structure (SMILES)": "CC(=O)[O-].O.O.O.O.[Mn+2].[O-]c1ccc(Br)cc1C=NCCN1CCOCC1", "target or system": "Shigella flexneri", "setting": "20 µL of 100 µM per disc", "quantity": "inhibition zone diameter", "value": "20 mm"}
{"Structure (SMILES)": "COC1=CC(c2ccc[nH]2)=NC1=Cc1[nH]c(Cc2ccc(Cl)cc2)cc1Cc1ccc(Cl)cc1", "target or system": "Plasmodium yoelii", "system": "Kenya strain MRA-428, mice", "setting": "oral, day 5, dosed 4 days", "quantity": "ED50", "value": "2.8 mg/kg/day"}
{"Structure (SMILES)": "Fc1ccc2c(c1)c1nc3ccc(Br)cc3c-1cn2Cc1cn(-c2ccccc2I)nn1", "target or system": "Giardia duodenalis trophozoites", "test": "UHPLC-Q-TOF-MS, item: PI(13:0/12:0)", "setting": "IC50, 0.2033 h", "scale": "baseline: 0.25% DMSO", "quantity": "fold change", "value": -26}
{"Structure (SMILES)": "CCCCn1c2ccc([N+](=O)[O-])cc2c(=O)n1Cc1ccccc1", "target or system": "Leishmania amazonensis", "system": "promastigotes, MHOM/BR/77/LTB0016", "scale": "baseline: CC50 macrophages over IC50 promastigotes", "quantity": "selectivity index", "value": 9}
{"Structure (SMILES)": "COc1cc(CNC(=O)C[C@H](C)CCC=C(C)C)ccc1OCc1cn(-c2ccc(F)cc2)nn1", "target or system": "MDA-MB-468 breast cancer cells", "test": "SRB", "setting": "10 µM, 48 h", "quantity": "growth percent", "value": "65%"}
{"Structure (SMILES)": "Cn1c(=O)oc2ccc(-c3ccc(CC(C#N)NC(=O)C4CNCCCO4)c(F)c3)cc21 (stereo not shown)", "system": "human", "setting": "oral, 10 mg once daily, TEAE, multiple ascending dose", "quantity": "urine RBC positive incidence", "value": "0%"}
{"Structure (SMILES)": "O=c1c2cc([N+](=O)[O-])ccc2n(CCO)n1Cc1ccccc1", "target or system": "Leishmania amazonensis", "system": "promastigotes, MHOM/BR/77/LTB0016", "scale": "baseline: CC50 macrophages over IC50 promastigotes", "quantity": "selectivity index", "value": 12}
{"Structure (SMILES)": "COc1cc(CNC(=O)C[C@H](C)CCC=C(C)C)ccc1OCc1cn(-c2ccc([N+](=O)[O-])cc2)nn1", "target or system": "OVCAR-8 ovarian cancer cells", "test": "SRB", "setting": "10 µM, 48 h", "quantity": "growth percent", "value": "63.5%"}
{"Structure (SMILES)": "CC(C)(O)c1ccc(N2Cc3c(ccnc3-c3ccc(F)cc3OCC(F)(F)F)C2=O)cc1", "system": "Gaucher disease mouse model, brain", "setting": "10 mg/kg, 2 months once daily", "scale": "baseline: vehicle", "quantity": "glucosylceramide level", "value": "58 ± 2%"}
{"Structure (SMILES)": "COc1ccc(C2CC(c3ccc(C)cc3)=Nc3ccccc3S2)cc1 (stereo not shown)", "system": "Wistar rat, STZ-induced diabetes", "setting": "oral, 20 mg/kg once daily, day 7", "quantity": "blood glucose", "value": "235 ± 4.61 mg/dL"}
{"note": "A few entries again:"}
{"Structure (SMILES)": "Fc1ccc2c(c1)c1nc3ccc(Br)cc3c-1cn2Cc1cn(-c2ccccc2I)nn1", "target or system": "Giardia duodenalis trophozoites", "test": "UHPLC-Q-TOF-MS, item: PI(13:0/12:0)", "setting": "IC50, 0.2033 h", "scale": "baseline: 0.25% DMSO", "quantity": "fold change", "value": -26}
{"Structure (SMILES)": "COc1cc(CNC(=O)C[C@H](C)CCC=C(C)C)ccc1OCc1cn(-c2ccc([N+](=O)[O-])cc2)nn1", "target or system": "OVCAR-8 ovarian cancer cells", "test": "SRB", "setting": "10 µM, 48 h", "quantity": "growth percent", "value": "63.5%"}
